Earlier results, collected from citations in different studies.
Compare with care: the assays were run in different laboratories. Values joined by “and” are separate records of one study, mostly repeats; a detail may differ.

Compound = COC(=O)C(c1ccccc1)C1CCCCN1 (centres unmarked); system = human, plasma; setting = concentration not given, range of reported values; measurement = Cmax; result = 10 to 176000 nM
Compound = COC(=O)[C@H](c1ccccc1)[C@H]1CCCCN1; system = human, by CES1 genotype, plasma; setting = oral, 10 mg methylphenidate, single dose, median; measurement = half-life; result = 2.6 h
Compound = O=c1[nH]c2ccccc2n1C1CCN(CCCC(c2ccc(F)cc2)c2ccc(F)cc2)CC1; system = human; measurement = free Cmax; result = 8.7 nM
Compound = CCCC(C(=O)c1ccc2c(c1)OCO2)N1CCCC1.Cl (racemic); system = female Sprague-Dawley rat, brain; setting = intraperitoneal, 3 mg/kg, 30 min; measurement = brain concentration; result = 863 ng/g
Compound = COc1ccc2c3c1O[C@H]1[C@@H](O)C=C[C@H]4[C@@H](C2)N(C)CC[C@@]341; measurement = log partition coefficient; result = 1.2
Compound = CC(C)N(CCC(C(N)=O)(c1ccccc1)c1ccccn1)C(C)C (centres unmarked); system = human; measurement = free Cmax; result = 742 nM
Compound = Cc1ncc2n1-c1ccc(Cl)cc1C(c1ccccc1F)=NC2; system = human liver microsomes; measurement = CLint; result = 70 µL/min/mg protein
Compound = CC(C(=O)O)c1ccc(-c2ccccc2)c(F)c1 (centres unmarked); system = human; measurement = oral bioavailability; result = 95%
Compound = CC(C)N(CCC(C(N)=O)(c1ccccc1)c1ccccn1)C(C)C (centres unmarked); system = human, blood; measurement = blood-to-plasma ratio; result = 1.2 ¹⁶
Compound = CCCCCc1cc(O)c2c(c1)OC(C)(C)[C@@H]1CCC(C)=C[C@@H]21; system = human, plasma; setting = dose not given, therapeutic dronabinol dosing; measurement = Tmax; result = 1.5 h
Compound = COc1ccc2c3c1O[C@H]1C(=O)CC[C@H]4[C@@H](C2)N(C)CC[C@]314; system = mouse; measurement = fraction unbound; result = 0.41
Compound = Cc1ncc2n1-c1ccc(Cl)cc1C(c1ccccc1F)=NC2; system = plasma; setting = concentration not given, total, steady state; measurement = Cmax; result = 340 nM
Compound = CN[C@@]1(c2ccccc2Cl)CCCCC1=O; system = mouse; setting = dose not given, together with: 1-ABT and ticlopidine; how to read = reference: without CYP inhibitors; measurement = AUC(0-3h); result = increased
Compound = NC(=O)c1ccc2c(c1O)[C@]13CCN(CC4CC4)[C@H](C2)[C@]1(O)CCC(=O)C3; system = human; setting = oral, 5 mg, day 1; measurement = Tmax; result = 2 h
Compound = CCC(CC)COC(=O)[C@H](C)N[P@](=O)(OC[C@H]1O[C@@](C#N)(c2ccc3c(N)ncnn23)[C@H](O)[C@@H]1O)Oc1ccccc1; system = human; setting = intravenous infusion, 0.5 h infusion; measurement = Tmax; result = 0.67 h
Compound = C=C1C[C@@H]2[C@H](CC[C@]3(C)C(=O)CC[C@@H]23)[C@@]2(C)C=CC(=O)C=C12; system = patients, urine; setting = dose not given; measurement = unchanged fraction; result = < 1%
Compound = Cc1ncc2n1-c1ccc(Cl)cc1C(c1ccccc1F)=NC2; system = human; measurement = half-life; result = 1.5 to 2.5 h
Compound = Cc1ncc2n1-c1ccc(Cl)cc1C(c1ccccc1F)=NC2; system = human; measurement = clearance; result = 150 L/h
Compound = COc1ccc2c(c1)[C@]13CCCC[C@@H]1[C@H](C2)N(C)CC3; system = human; measurement = plasma clearance; result = 14.8 mL/min/kg
Compound = O=c1[nH]c2ccccc2n1C1CCN(CCCC(c2ccc(F)cc2)c2ccc(F)cc2)CC1; system = human, plasma; setting = concentration not given, median of reported values; measurement = Cmax; result = 8 nM
Compound = Cc1ncc2n1-c1ccc(Cl)cc1C(c1ccccc1F)=NC2; system = human; setting = average of reported values; measurement = blood-to-plasma ratio; result = 0.57
Compound = CC(NC(C)(C)C)C(=O)c1cccc(Cl)c1 (centres unmarked); system = dog; measurement = fraction unbound; result = 0.213
Compound = c1ccc2c(c1)Cc1ccccc1-2; system = zebrafish embryos, whole embryo; setting = 192.8 ng/well, 48 hpf, single exposure; measurement = amount in tissue; result = 2.65 ng/well and 2.9 ng/well and 2.6 ng/well
Compound = O=C(O)[C@H](c1ccccc1)[C@H]1CCCCN1; system = human, by CES1 genotype, plasma; setting = oral, 10 mg methylphenidate, single dose, median; measurement = Tmax; result = 2 h
Compound = O=C1CN=C(c2ccccc2Cl)c2cc([N+](=O)[O-])ccc2N1; system = supercritical CO2; measurement = crossover pressure; result = 140 to 170 bar
Compound = COC(=O)C(c1ccccc1)C1CCCCN1 (centres unmarked); system = mouse; measurement = fraction unbound; result = 0.12
